Measurements collected from several papers.
Lines come from different studies, so protocols differ.
Target: Serine/threonine-protein kinase TAO3 (TAOK3, Homo sapiens, UniProt Q9H2K8)

With `COc1ccc(NC(=O)Nc2ccc3c(c2)C(=O)N(C(C)CO)CC(C)C(CN(C)Cc2ccc4c(c2)OCO4)O3)cc1` (stereo not drawn) the remaining activity was 84% (kinase activity, KinaseProfiler; 0.03 µM, species human; relative to: control).
With `COc1cc(Nc2nccc(-c3cnn4nc(OC)ccc34)n2)cc(C(F)(F)F)c1` the remaining binding was 72% (binding, competition with immobilised ligand; 1 µM).
With `C=CC(=O)N1CCCC(n2c(=O)c3ncccc3n(Cc3ccc(Oc4ccccc4)cc3)c2=O)C1` (stereo not drawn) the remaining binding was 92% (cell-free assay, competition with immobilised ligand; 1 µM).
For `COc1ccc(C(=O)/C=C/c2ccccc2-c2c[nH]c3ccc(C#N)cc23)c(O)c1`, the inhibition was -1% (enzyme activity, inhibitor; 20 µM).
For `CC(C)=CC1OC(C)(C)C2C=C3C(=O)C(Cl)=CC(O)C3C3C(O)C4OC4C(=O)C132` (stereo not drawn), the remaining binding was 79% (cell-free assay, competition with immobilised ligand; 10 µM).
The inhibition of `C=CC(=O)Nc1cccc(-c2cnc3[nH]cc(C(=O)NC(C)(C)C)c3n2)c1` is reported as 22% (enzyme activity, inhibitor; 0.1 µM).
With `Nc1ncc2c(n1)-c1c([nH]c3ccc(C4=CCOCC4)cc13)CCC2` the remaining binding was 100% (binding, competition with immobilised ligand; 1 µM).
With `COc1c(Cl)cccc1Nc1c(-c2ccncc2C#C[C@@]2(C)CCCN2C(=O)/C=C/CN(C)C)[nH]c2c1C(=O)NCC2` the remaining binding was 27% (binding, competition with immobilised ligand; 3 µM).
For `CNC(=O)C1CCN(c2cc(C)c(F)cc2NC(=O)c2ccc(-c3cc(O)ccc3C)c(C)c2)CC1`, the remaining binding was 96% (binding, competition with immobilised ligand; 1 µM).
`CNC1C[S+]2CC[S+]3CC[S+](C1)[Ru-4]321([N]=C=S)[n]2c3ccc(OC)cc3c3c4c(c5cc(F)c[n+]1c5c32)C(=O)NC4=O` (stereo not drawn) has a remaining binding of 88% (KinomeScan; 0.1 µM; relative to: untreated).
With `C=CC(=O)N1CCc2ccc(-n3c(=O)ccc4cnc5ccc(-c6cnn(C)c6)cc5c43)cc21` the remaining binding was 97% (KINOMEscan; 1 µM; relative to: DMSO control).
`NC(=O)C[C@H]1CCc2sc3ncnc(O[C@H]4CC[C@H](N5CCOCC5)CC4)c3c21` has an inhibition of 3% (enzyme activity, inhibitor; 10 µM).
The inhibition of `CCn1cc(C(=O)O)c(=O)c2c(N)c(F)c(NC3CCCCC3)cc21` is reported as -5.4% (kinase activity; 0.1 µM, added: ATP at Km).
For `Cc1cccc(O[C@H]2CCC[C@@H](C(C)CNCc3ccncc3)C2)c1` (relative stereo), the inhibition was -11% (enzyme activity, inhibitor; 10 µM).
`CN1CCN(Cc2ccc(-c3ccc(CO[C@H]4CCC[C@@H]4NC(=O)c4cc(-c5cnn(C)c5)cnc4N)cc3)cc2)CC1` gave an inhibition of 10% (enzyme activity, inhibitor; 0.1 µM).
